# Results pooled from the literature.
# Numbered parts are unrelated; each lists some results of a single study.

# Sample 1
# Target: Histone acetyltransferase KAT6A, winged helix 1, GST fusion (KAT6A, Homo sapiens, UniProt Q92794, residues 1-85)
# Technique: protein binding microarray
# Molecule type: double-stranded DNA, one strand shown
# Matrix: in vitro
# Tested at: not given
# Setting: 8-mer, flanks averaged, mean of 2 arrays, mostly near background
# Reference: not given
# Reading: higher = stronger binding
# Construct (chain): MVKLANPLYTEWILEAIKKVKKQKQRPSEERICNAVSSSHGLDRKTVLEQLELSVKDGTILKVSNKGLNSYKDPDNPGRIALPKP
Oligonucleotide,E-score
CTGATTAA,-0.121
TCTTAGAA,-0.138
AAGTTGGG,-0.289
GGCAAGCC,0.156
CTAACACA,-0.0883
CCTGTGGA,-0.195
GCATGTCA,-0.0297
TGATTTAA,-0.0847
CTGAACAA,-0.00625
GAAATGCA,-0.221
CACCTACG,0.19
CGGCCAGC,0.292
TAGTGGAA,-0.0575
CTTACATC,-0.217
ATCCACAC,-0.309
GATCCTCC,-0.0239
GCTCAAAA,-0.0431
ATTAGCCC,0.0379
GTTACTCA,-0.0182
CCTCTTCA,-0.154
AGTGGTCG,-0.144
CGCGCGTA,0.462
AGTCCCGG,0.217
ATTACCAC,-0.132
ACTAGCCG,0.314

# Sample 2
# Target: Sal-like protein 4, full length isoform A (SALL4, Homo sapiens, UniProt Q9UJQ4, residues 1-1053)
# UniProt Q9UJQ4, sequence (whole entry, looked up): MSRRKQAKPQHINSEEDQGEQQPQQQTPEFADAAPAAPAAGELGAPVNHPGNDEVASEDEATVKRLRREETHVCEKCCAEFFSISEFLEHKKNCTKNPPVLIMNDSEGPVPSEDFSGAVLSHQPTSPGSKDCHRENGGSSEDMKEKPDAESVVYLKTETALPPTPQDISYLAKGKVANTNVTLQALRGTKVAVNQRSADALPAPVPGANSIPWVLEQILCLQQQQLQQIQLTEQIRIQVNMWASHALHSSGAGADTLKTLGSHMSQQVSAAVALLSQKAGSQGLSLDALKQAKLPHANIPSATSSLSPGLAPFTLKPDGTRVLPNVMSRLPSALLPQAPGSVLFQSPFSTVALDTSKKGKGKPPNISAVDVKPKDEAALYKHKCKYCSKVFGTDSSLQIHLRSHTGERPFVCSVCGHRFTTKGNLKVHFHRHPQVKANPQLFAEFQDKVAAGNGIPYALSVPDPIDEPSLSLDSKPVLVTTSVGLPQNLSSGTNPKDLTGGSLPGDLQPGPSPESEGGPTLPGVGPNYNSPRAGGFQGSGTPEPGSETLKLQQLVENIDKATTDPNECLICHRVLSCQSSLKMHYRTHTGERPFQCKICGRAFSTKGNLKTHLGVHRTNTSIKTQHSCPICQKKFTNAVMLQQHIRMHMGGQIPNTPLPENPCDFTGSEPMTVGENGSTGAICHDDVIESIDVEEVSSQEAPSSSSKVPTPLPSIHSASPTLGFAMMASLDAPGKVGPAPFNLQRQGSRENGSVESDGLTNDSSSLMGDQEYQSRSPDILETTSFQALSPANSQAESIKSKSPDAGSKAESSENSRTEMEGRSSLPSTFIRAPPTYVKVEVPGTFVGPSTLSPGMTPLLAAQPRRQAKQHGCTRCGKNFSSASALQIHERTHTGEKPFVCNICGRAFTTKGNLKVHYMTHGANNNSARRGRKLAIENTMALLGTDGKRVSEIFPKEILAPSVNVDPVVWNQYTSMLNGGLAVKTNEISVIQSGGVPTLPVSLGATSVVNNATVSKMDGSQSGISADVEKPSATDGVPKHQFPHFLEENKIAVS
# Technique: universal PBM
# Molecule type: double-stranded DNA, one strand shown
# Matrix: in vitro
# Tested at: 600 nM
# Setting: 8-mer, flanks averaged, mean of replicates
# Reading: higher = stronger binding
Oligonucleotide,E-score
ACCGATAA,0.249
CTTGGAAC,-0.0796
GGGGCTCA,-0.309
CGCCAGGA,-0.173
GGCTAGCA,-0.137
ATTAGAGG,0.0209
AGTCCGAG,-0.209
CCCAGTCG,-0.3
GTTGTTTA,0.241
CGCGCGAC,-0.294
TACGCGCA,-0.0917
ATTATCGA,0.238
CAACGCAC,-0.157
GGGGCAGA,-0.132
CATTCCGC,-0.289
ATTGTGAA,0.264
GACCGTAA,0.0238
CAGTAGGA,-0.118
GGGACACC,-0.338
ACCTCCCA,-0.267
AGACGCGA,-0.0449
CTGGTCTA,-0.0674
CCACTTGC,-0.145
AACCTAAT,0.105
ATGTGCGC,-0.0561

# Sample 3
# Target: Prothrombin, mature alpha-thrombin (F2, Homo sapiens, UniProt P00734)
# Technique: aptamer microarray, sandwich
# Molecule type: DNA with 2'F-ANA
# Matrix: in vitro
# Tested at: 200 nM
# Setting: whole 15-mer aptamer, many near background
# Together with: Cy3 exosite-II aptamer, 400 nM
# Reading: higher = stronger binding
# Oligonucleotide: GGTTGGTGTGGTTGG
Modification,mean fluorescence intensity [a.u.]
2'F-ANA at 1 5 6 11 12 13 14 15,57.5
2'F-ANA at 1 2 3 4 6 8 9 10 15,69
2'F-ANA at 1 8 10 11 12 14,105
2'F-ANA at 1 2 10 11 12 15,65.7
2'F-ANA at 1 5 6 7 8 9 12 13 14 15,46.1
2'F-ANA at 1 2 3 4 5 10 11 12 13 14,51.8
2'F-ANA at 2 3 7 11 13 14,465
2'F-ANA at 1 4 5 6 7 12 13 14,45.9
2'F-ANA at 1 2 3 4 10 12 13 15,88.6
2'F-ANA at 1 6 9 10 11 13,63.6
2'F-ANA at 1 3 5 7 10 14,47.4
2'F-ANA at 1 2 4 9 10 12 13,51.9
2'F-ANA at 6 9 11 13,317
2'F-ANA at 3 8 10 12 13,635
2'F-ANA at 3 5 6 8 9 10 12 13 14,49
2'F-ANA at 1 2 3 4 6 8 9 10 14,51.9
2'F-ANA at 3 4 6 9 10 12 13 15,231
2'F-ANA at 1 2 3 5 7 8 9 10 13,48.6
2'F-ANA at 1 8 9 10 11 12 15,65.8

# Sample 4
# Target: Interferon regulatory factor 7, full length, phosphomimetic (IRF7, Homo sapiens, UniProt Q92985, residues 1-503, S471D/S472D/S475D/S476D/S477D/S483D/S484D/S487D)
# Technique: protein-binding microarray
# Molecule type: double-stranded DNA, one strand shown
# Matrix: in vitro
# Tested at: 2200 nM top
# Setting: 60-bp whole probe
# Together with: salmon DNA 0.4 mg/ml
# Reference: random background probes
# Reading: higher = stronger binding
# All sequences stand within: GCCTAGCAC … GTCTTGATTCGCTTGACGCTGCTG
# Target sequence (chain): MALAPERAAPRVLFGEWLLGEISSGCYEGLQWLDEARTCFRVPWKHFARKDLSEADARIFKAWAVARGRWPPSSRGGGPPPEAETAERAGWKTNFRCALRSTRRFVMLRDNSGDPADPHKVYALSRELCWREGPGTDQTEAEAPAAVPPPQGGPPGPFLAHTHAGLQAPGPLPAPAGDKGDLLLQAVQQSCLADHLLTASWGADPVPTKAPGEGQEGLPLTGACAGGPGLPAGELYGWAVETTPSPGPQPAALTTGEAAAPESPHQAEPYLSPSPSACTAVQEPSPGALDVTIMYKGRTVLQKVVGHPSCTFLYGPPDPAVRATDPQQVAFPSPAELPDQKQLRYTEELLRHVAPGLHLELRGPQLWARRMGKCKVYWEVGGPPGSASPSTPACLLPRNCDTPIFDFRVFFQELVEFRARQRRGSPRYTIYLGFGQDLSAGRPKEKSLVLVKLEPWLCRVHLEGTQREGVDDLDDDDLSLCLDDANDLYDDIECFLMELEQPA
Oligonucleotide,fitted relative affinity [z-score]
CTCTTCTTTTTTTTCTTTAAGTGCTAG,2.41
CTAGATTTCAGTTCCGATTAGTGCTAG,2.39
GACGGTATCGGTATCGGGGCGTGCTAG,0.23
GAGTCTTCCCTTTTAAGTTCGTGCTAG,1.86
TACGAACTGGGGTATCGAGACGTGCTA,-0.044
TCAGTCCTCACTTCCTTCTGGTGCTAG,2.39
TTAGATTTCGGGACCGGATTAGTGCTA,1.11
GACGGGCTCCTTTTCCTGACGTGCTAG,0.203
TCTTTTCTGTTGTCTGTGTTTGTGCTA,3.93
TCATTTTTCTAACCCATACTGTGCTAG,2
GACGGTCTCCTACAGCTGACGTGCTAG,0.771
TTAGATTTCGGGTTTAGATTAGTGCTA,3.74
TTAGTTTTCCTTTCCCTTTAGTGCTAG,7.76
TTAGATTCCAGTTTCAATTAGTGCTAG,1.97
GACGGTATGCTACTGCTGACGTGCTAG,0.0726
TACGGACTGGACTATCGGGACGTGCTA,-0.708
GACGGGTTCGGTCTCGGGACGTGCTAG,0.265
TCAGTTGTAGTTTTCATACTGTGCTAG,1.54
GGGGGAAATGGGAAACCCGGGGTGCTA,0.557
GACGGTTTCGACACTGCGGACGTGCTA,2.62
TCAGGTTAAAATTTTGCACTGTGCTAG,-0.0896
TTAGGTATCAGACTGGGTTAGTGCTAG,-0.106
TTAGGTATCGACTTTCGGTTCGTGCTA,11.4
TCAATTCTCATTTCCAAACTGTGCTAG,1.8
TCAGCTGTGGGTTTGAGACTGTGCTAG,-0.429

# Sample 5
# Target: RING finger protein unkempt homolog, zinc fingers 1-6, GST-SBP tag (UNK, Homo sapiens, UniProt Q9C0B0, residues 30-357)
# UniProt Q9C0B0, sequence (30-357, looked up): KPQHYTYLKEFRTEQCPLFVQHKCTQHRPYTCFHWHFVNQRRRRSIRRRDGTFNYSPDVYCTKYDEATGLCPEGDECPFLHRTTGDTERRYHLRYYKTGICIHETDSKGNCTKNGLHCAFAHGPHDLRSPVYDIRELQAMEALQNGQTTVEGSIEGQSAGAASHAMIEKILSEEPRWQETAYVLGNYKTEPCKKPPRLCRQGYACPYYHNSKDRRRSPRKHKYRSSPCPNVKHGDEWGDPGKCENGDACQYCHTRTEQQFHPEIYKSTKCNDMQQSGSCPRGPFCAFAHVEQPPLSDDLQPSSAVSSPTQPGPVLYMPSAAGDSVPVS
# Technique: RNA Bind-n-Seq
# Molecule type: RNA
# Matrix: in vitro
# Tested at: not given
# Setting: RNA with constant flanks, human-mouse chimeric sites, ends assumed
# Reference: input RNA pool
# Reading: higher = stronger binding
# All sequences stand within: GGGAGUUCUACAGUCCGACGAUC … CAACAGAGGAUUGAGCAUCA
Oligonucleotide,bound/input enrichment [ratio]
UGUGAACUGUCUCUUGAGAUCUAAAAACAAGAUGACUUUUCCUGGCACAUAUUUCAAAGCAAAGACUUUGUUGCCUGCUGCUUAUUGUCUAAUUUACAGGGAUAUUUAAUUUUGUAAGGU,0.129
CUGAGGAUACCACUGAAGAGACCUUAAAAGAAUCAUUUGAGGGCUCUGUUCGUGCAAGAAUAGUCACUGAUCGGGAAACUGGUUCUUUCCAAAGGGUUGGUUUUGUAGACUUUAAUAGUG,0.798
UCUUUAAAAAAAAAAUUACCUUUUCUGACAGUGCUUUCCCUCCCAUAGAUCCACGUUCAAGCUCAAAGAGCAAAGGCUCCGCAAACAUCUGAUGAUGCUGAUGAAGAAAGAUUUCUGAGA,1.22
UUGCUACUGACUCCCUGGGUUAAAUUCCUGUGGGAAUCAUACAGGCAGUGUUUGGACCUUCUUCGAAACAAUUCUAGAGUAGAGCGCCUGUACCAUGAUAUCGCCCAACAAGCUUUCAAA,0.165
AUCAAGUACUUUGGGGACAUCAUUAGUGUGGGACAGAGACUGUUGCAAGGAGCUCGGAUCUUAGGGAUUCCUGUUAUCAUAACGGAACAAUACCCCAAAGGACUUGGCAGCACCGUUCAA,0.151
GUGUCCUUUCAACUUAAUAAAUCACUGAGGCAUCUCUACUGUUCUGUGAGCAUCAGGACUGUAGCGCUGUGUCACCACAUGAGAGUUCAGAAGCAGCCUUUCUGUGGAGAGUGAGAAUGA,0.179
CUUAAUGUUAAUAUUUUUAAAGGAAGCUAAAACCAUGGUCUGCUUUUGGUACAACACGCAUUAAUAAAAGGUUAAGUUUUGUUUUCCACUGAAGUACUAUUUAACAUCUCAGAAAAAAAC,0.247
AGAGAUAAGACAUCCAGGAACAUGCGAGGCUCCCGGAUGAAUGGACUGCCUAGCCCCACUCAUAGUGCCCACUGUAGCUUCUACCGAACCAGAACCUUGCAGGCACUGAGUAAUGAGAAG,0.129
AAUUUCCUGUCAUACUUUUUAGACAUUCACAUCAGACUUACAGAGCACCUGGCCACAUUCUAGUUUUGUGUUAUUUCUAAGCCUUUUAUAUGAUCAAAUGAGAACACUGCUUAACUAAUG,0.898
UUGUGCAAUGAUGCUUGAGAUGGUUUUUGCAAAAGCAGACAUCGCUGCAAGGUAAUCACAAUAGAUAAAAGUGGUAUUUUAAACCUUUGAAAUAAAUGGAUGUAACUGUACCUUGGUACA,0.896
UAAGUCCUGUGCCAGCACUUCGCUCAUAAAGUUUUAAAUUCUGGACCAAUAGUGUUUGUUUCCUGAUUUUUGUAUUCAAUACUUUGCGUACUAUGUGACUCACUCUUACUGAUAAUAAAA,0.553

# A few entries again (sample 1):
Oligonucleotide,E-score
GGCAAGCC,0.156
CTAACACA,-0.0883
CCTGTGGA,-0.195
GCATGTCA,-0.0297
TGATTTAA,-0.0847
CTGAACAA,-0.00625
GAAATGCA,-0.221
CACCTACG,0.19
CGGCCAGC,0.292
TAGTGGAA,-0.0575
CTTACATC,-0.217
ATCCACAC,-0.309
GATCCTCC,-0.0239
GCTCAAAA,-0.0431
